Measured values pooled from the literature.
A part holds a random share of what one study measured. Changes are numbered by the printed parent chain.

Block 1
Target: Histone acetyltransferase KAT6A, both winged helices, GST fusion (KAT6A, Homo sapiens, UniProt Q92794, residues 1-181)
Method: protein binding microarray
Form: double-stranded DNA, one strand shown
Sample: in vitro
Concentration: not given
Setting: 8-mer, flanks averaged, mean of 2 arrays, mostly near background
Reference: not given
Reading: higher = stronger binding
Target sequence (chain): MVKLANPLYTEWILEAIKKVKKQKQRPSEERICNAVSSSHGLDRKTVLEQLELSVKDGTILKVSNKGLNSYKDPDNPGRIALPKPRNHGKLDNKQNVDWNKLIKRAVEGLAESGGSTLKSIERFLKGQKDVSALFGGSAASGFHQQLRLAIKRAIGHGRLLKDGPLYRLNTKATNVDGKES
| Strand | E-score |
| --- | --- |
| CAATTATG | 0.14 |
| GTATTGAA | -0.00262 |
| AGGGGACC | -0.0702 |
| ACTTCGTA | -0.128 |
| ACTGGCCT | -0.142 |
| CACGTCAC | -0.037 |
| CGGGACCG | 0.322 |
| ATGGATAA | -0.0253 |
| TAAAGAGA | -0.0825 |
| AATTGATC | -0.0415 |
| AAACCCGG | 0.305 |
| GGGGGAGA | -0.288 |
| ATGTGCTC | -0.149 |
| CCACGCAG | 0.0271 |
| CAGAACTC | -0.118 |
| ATAGAGCA | -0.176 |
| GATACGTA | 0.0223 |
| ACTTCGCC | 0.115 |
| CCCGAAGC | 0.0254 |
| CTGGGAGA | -0.168 |
| GCGAAGCA | 0.073 |
| AACCAACC | -0.166 |
| ACTTGAAT | -0.155 |
| CGTGCATA | -0.00983 |
| GTCATTTA | -0.169 |

Block 2
Target: ABI1, truncated, D143A, DHFR fusion (Arabidopsis thaliana)
Method: DHFR PCA, deep sequencing
Sample: yeast
Setting: methotrexate growth selection, single substitutions
Together with: (+)-ABA 0.0091 µM
Reference: wild-type fitted maximum
Reading: higher = stronger binding
Starting sequence: PYL1, truncated, DHFR fusion (Arabidopsis thaliana); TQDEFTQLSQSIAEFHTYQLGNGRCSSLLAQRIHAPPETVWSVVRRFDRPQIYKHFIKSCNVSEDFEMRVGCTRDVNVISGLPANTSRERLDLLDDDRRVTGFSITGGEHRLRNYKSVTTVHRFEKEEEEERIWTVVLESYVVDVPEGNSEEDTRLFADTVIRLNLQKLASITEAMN; partner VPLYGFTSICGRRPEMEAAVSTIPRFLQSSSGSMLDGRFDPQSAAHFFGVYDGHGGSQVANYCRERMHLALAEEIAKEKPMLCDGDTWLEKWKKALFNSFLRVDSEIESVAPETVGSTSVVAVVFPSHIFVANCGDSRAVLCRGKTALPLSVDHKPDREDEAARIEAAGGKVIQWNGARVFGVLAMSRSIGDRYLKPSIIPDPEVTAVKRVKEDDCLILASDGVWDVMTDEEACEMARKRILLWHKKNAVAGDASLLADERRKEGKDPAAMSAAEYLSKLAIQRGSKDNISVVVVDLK
| Change | relative binding score [%] |
| --- | --- |
| G71E | -1.23 |
| D96P | -11.6 |
| D65I | -6.23 |
| G108T | -0.908 |
| C25A | 18.2 |
| C25S | -0.273 |
| S63N | 20.8 |
| P37Y | 1.04 |
| T6F | 44.2 |
| N85C | 55 |

Block 3
Target: CCNF, cyclin fold, Cln2 fusion (human)
Method: yeast growth competition, sequencing
Sample: yeast
Setting: strong parent motif
Reference: not given
Reading: higher = stronger binding
Starting sequence: CDC25A docking peptide (human); PPHRRRLLFACSP
| Change | normalised enrichment score |
| --- | --- |
| P2R | 7.07 |
| F9S | 1.86 |
| L7M | 1.51 |
| L7R | 1.92 |
| F9G | 1.23 |
| P2H | 6.69 |
| L7H | 1.34 |
| F9A | 1.58 |
| S12M | 7.06 |
| H3N | 4.17 |
| C11V | 8.55 |
| H3A | 9.23 |
| C11E | 8.43 |
| P1L | 7.09 |
| A10H | 7.79 |
| A10Y | 6.97 |
| P1C | 7.32 |
| L7G | 0.919 |

Block 4
Target: Fragile X messenger ribonucleoprotein 1, C-terminal low-complexity region (Fmr1, Mus musculus, UniProt P35922)
Method: RNA Bind-n-Seq
Form: RNA
Sample: in vitro
Concentration: 200 nM
Setting: whole 134-nt RNA, ends assumed
Together with: 150 mM LiCl
Reference: input library
Reading: higher = stronger binding
Each molecule: 7-deaza-guanosine replaces G
Shared flanks, not repeated: GGGAGUUCUACAGUCCGACGAUC … UGGAAUUCUCGGGUGUCAAGG
| Strand | log2 enrichment |
| --- | --- |
| UAAGGCCAGUAAAAUUUUAGUACCUGGAGGUUUGACUCUAAUUUUUGCACUGAUGGUGCCAAAGGGCCCUGAGUCAAAAGGAUAGCCAAG | -3.21 |
| UCAAGUCCUGUGCUACACAUCGUAUGUACCGAAUCGGGGAAGGGAAGGGAAGGGAAAGUAUUAUGUUACGCCGUUCGGAUCUGCACUUCC | -0.77 |
| CCUGUGCUACACAUCGUAUGUACCGAAUCGGGGUUUGGGGAAAAAAAGGGGAAAAAGGGGAAAGUAUUAUGUUACGCCGUUCGGAUCUGC | -0.0468 |
| AAGUCCUGUGCUACACAUCGUAUGUACCGAAUCGGCCCGGGGCCCGGGGCCCGGGGAAAGUAUUAUGUUACGCCGUUCGGAUCUGCACUU | -1.86 |
| UGGGAUGUGGAUUUUGUUUAUUUUUUUAGCUCAUUUCCAGGGGUGGGAAUUUUUUUUUAAUAUGUGUCAUGAAUAAAGUUGUUUUUGAAA | 1.19 |
| CACAGACAACACGCACCCACACAGACACAGAGGGAAGGGGUUGGGAUGGGGACAGGGUGCACAGCAGGGCGGGGUAGGUCCCCAGCCCCU | 1.87 |
| UGGCCCUGGUGGCAUGCGGGGAGGAAGAGGUGGCCUCAUGGAUCGUGGUGGUCCCGGUGGAAUGUUCAGAGGUGGCCGAGGUGGAGACAG | -0.793 |
| UCAUGGCUAUCAUUAGCCACAGGUACUGCUGAUUAUAAGGCCAGUAAAAUUUUAGUACCUGGAGGUUUGACUCUAAUUUUUGCACUGAUG | -3.36 |
| AAGUCCUGUGCUACACAUCGUAUGUACCGAAUCGGGGAAAGGAAAGGGGAAAGGGGAAAGUAUUAUGUUACGCCGUUCGGAUCUGCACUU | 0.286 |
| UCCUGUGCUACACAUCGUAUGUACCGAAUCGGGUUUUUGGGGUUUUUGGGUUUUUGGGGAAAGUAUUAUGUUACGCCGUUCGGAUCUGCA | -0.966 |
| UGGCCCUGGUGGCAUGCGUGGAGGAAGAGGUGGCCUCAUGGAUCGUGGUGGUCCCGGUGGAAUGUUCAGAGGUGGCCGUGGUGGAGACAG | -0.0591 |

Repeated from above (block 4):
| Strand | log2 enrichment |
| --- | --- |
| UGGCCCUGGUGGCAUGCGGGGAGGAAGAGGUGGCCUCAUGGAUCGUGGUGGUCCCGGUGGAAUGUUCAGAGGUGGCCGAGGUGGAGACAG | -0.793 |
| UCAUGGCUAUCAUUAGCCACAGGUACUGCUGAUUAUAAGGCCAGUAAAAUUUUAGUACCUGGAGGUUUGACUCUAAUUUUUGCACUGAUG | -3.36 |
| AAGUCCUGUGCUACACAUCGUAUGUACCGAAUCGGGGAAAGGAAAGGGGAAAGGGGAAAGUAUUAUGUUACGCCGUUCGGAUCUGCACUU | 0.286 |
| UCCUGUGCUACACAUCGUAUGUACCGAAUCGGGUUUUUGGGGUUUUUGGGUUUUUGGGGAAAGUAUUAUGUUACGCCGUUCGGAUCUGCA | -0.966 |
| UGGCCCUGGUGGCAUGCGUGGAGGAAGAGGUGGCCUCAUGGAUCGUGGUGGUCCCGGUGGAAUGUUCAGAGGUGGCCGUGGUGGAGACAG | -0.0591 |
